# Published values pooled from the literature.
# Each line is one published result; not all experiments were run side by side. “And” joins repeats or separate records; there may be more than shown. pEC50, pIC50: −log10 of the molar value.
Compound,organism,assay,test system,conditions,how to read,measurement,result
NCCOCCO.O=C(O)C(Cl)Cl,Chenopodium album,herbicidal activity,,"15 mg/mL, 21 days, post-emergence greenhouse",,inhibition,0%
Nc1nc(-c2ccccc2)nc2[nH]nc(Nc3ccc(Cl)cc3)c12,rhinovirus B5,viral cytopathic effect,HeLa,,,pIC50,7.70
CC(C)n1ncc2c(C(=O)NCC(C)(C)N)cc(C3CC3)nc21,Enterovirus A71,viral replication,Tainan/4643/1998,30000 nM,,plaque reduction,100%
COc1nc(C(=O)O)ccc1NC(=O)c1ccc(NC(=O)c2ccc(NC(=O)[C@H](Cc3c[nH]nn3)NC(=O)c3ccc(NC(=O)/C(C)=C/c4ccc(O)cc4)cc3)cc2)c(OC)c1O,Salmonella enterica serovar Kentucky,broth microdilution,ciprofloxacin-resistant,,,MIC,8 mg/L
Nc1c(C(=O)c2ccc(Br)cc2)sc(S)c1-c1nc2ccccc2s1,Hepatitis C virus,"viral replication, inhibitor","Huh7.5, genotype 4 ED43","concentration not given, non-toxic dose, HCVcc",,viral titre reduction,23.3%
O=[N+]([O-])c1cc(Br)cc([N+](=O)[O-])c1NS(=O)(=O)c1ccc(Br)cc1,Arabidopsis thaliana,,"PYL4 overexpression, seeds",1 µM,,number of germinated seeds,33 and 35 and 34
CC1=NN(c2cccc(F)c2)C(=O)/C1=N\Nc1ccc(S(N)(=O)=O)cc1,Saccharomyces cerevisiae,,,50 µg/mL,,glucose uptake,35.4%
C=C[C@]1(C)C[C@@H](OC(=O)CSc2ccc(NC(=O)c3ccco3)cc2)[C@]2(C)[C@H](C)CC[C@]3(CCC(=O)[C@H]32)[C@@H](C)[C@@H]1O,Mycoplasma gallisepticum,,"infected chickens, lung","intramuscular, 50 mg/kg daily x3, 72 h",,lung mycoplasma count,4.54 log10 CFU/mL and 4.4 log10 CFU/mL and 4.29 log10 CFU/mL and 4.05 log10 CFU/mL and 5.05 log10 CFU/mL and 4.68 log10 CFU/mL and 5.1 log10 CFU/mL and 4.74 log10 CFU/mL
O=c1[nH]cc(C(c2ccc(Cl)cc2)c2c[nH]c(=O)[nH]c2=O)c(=O)[nH]1,HIV-1 subtype C,"p24 antigen production, p24 ELISA",,125 µg/mL,,inhibition,51%
COc1nc(C(=O)Nc2ccc(C(=O)O)c(O)c2OC)ccc1NC(=O)c1ccc(NC(=O)[C@H](Cc2c[nH]nn2)NC(=O)c2ccc(NC(=O)/C(C)=C/c3ccc(O)cc3)cc2)cc1,Salmonella Typhimurium,broth microdilution,TA100,,,MIC,0.016 mg/L
O=C1C=C[C@H](O/C=C2/C(=O)O[C@@H]3c4ccccc4C[C@H]23)O1 (racemic),Phelipanche ramosa,"seed germination, stimulant",seeds,1 µM,reference: (±)-GR24,maximum germination stimulation,92%
O=C(c1ccc(F)cc1)N1CCN(c2ccc(F)cc2)CC1,Saccharomyces cerevisiae,cell growth,wild type,,,pIC50,< 3.70
OC(Cn1cncn1)(Cn1cc(-[c-]2cccc2)nn1)c1ccc(F)cc1F.[Cl-].[Co+3].c1cc[cH-]c1 (racemic),Trypanosoma cruzi,,CL Brener,,reference: Vero IC50 over parasite IC50,selectivity ratio,22.5
Cc1cccc2c1N(C(=O)n1ccnn1)CC2,Arabidopsis thaliana,,kai2 mutant,1 µM,,germination rate,24.1%
O=c1[nH]cc(C(c2cccc(Cl)c2)c2c[nH]c(=O)[nH]c2=O)c(=O)[nH]1,HIV-1 subtype C,"p24 antigen production, p24 ELISA",,500 µg/mL,,inhibition,86%
CCc1ccc(-c2nc(N)c3c(Nc4ccc(F)cc4)n[nH]c3n2)cc1,rhinovirus B5,viral cytopathic effect,HeLa,,,pIC50,6.08
Cc1cc(C(=O)Nc2nc3cccc(C)c3n2[C@H]2CCCCN(C(=O)/C=C/CN(C)C)C2)ccn1,Trypanosoma cruzi,intracellular amastigote growth,Tulahuen,mean value,,pEC50,7.36
COc1nc2ccc(Br)cc2cc1[C@@H](c1ccccc1)[C@@](O)(CCN(C)C)c1cccc2ccccc12,Mycobacterium marinum,,,,,MIC90,3.12 µM
CC(=O)O[C@@H]1[C@@H](OC(C)=O)[C@H](Sc2sc(C(=O)c3ccc(Cl)cc3)c(N)c2-c2nc3ccccc3s2)OC[C@H]1OC(C)=O,Hepatitis C virus,"viral replication, inhibitor","Huh7.5, genotype 4 ED43","concentration not given, non-toxic dose, HCVcc",,viral titre reduction,13.3%
Cc1ccccc1C(c1c[nH]c(=O)[nH]c1=O)c1c[nH]c(=O)[nH]c1=O,HIV-1 subtype C,"p24 antigen production, p24 ELISA",,3.9 µg/mL,,inhibition,< 25%
CCOc1c(NC(=O)c2ccc(NC(=O)c3ccc(NC(=O)[C@H](Cc4c[nH]nn4)NC(=O)c4ccc(NC(=O)/C(C)=C/c5ccc(O)cc5)cc4)cc3)c(OCC)c2O)ccc(C(=O)O)c1O,Salmonella enterica serovar Kentucky,broth microdilution,ciprofloxacin-sensitive,,,MIC,0.063 mg/L
CN(C)c1ccc(Nc2n[nH]c3nc(-c4ccccc4)nc(N)c23)cc1,rhinovirus B5,viral cytopathic effect,HeLa,,,pIC50,6.85
C/C(=C\c1ccc(O)cc1)C(=O)Nc1ccc(C(=O)N[C@@H](Cc2c[nH]nn2)C(=O)Nc2ccc(C(=O)Nc3ccc(C(=O)Nc4ccc(C(=O)O)cc4)cc3)cc2)cc1,Salmonella enterica serovar Kentucky,broth microdilution,ciprofloxacin-sensitive,,,MIC,0.125 mg/L
CC(C)(C)NCC(SS(=O)(=O)O)c1ccccc1 (stereo not shown),Schistosoma mansoni,,mice,"100 mg/kg x2 from day 42, perfusion day 56",,male worms recovered,9 worms per mouse and 30 worms per mouse and 23 worms per mouse
CC1=CC(OC=C2C(=O)OC3c4ccccc4CC23)OC1=O (racemic),Arabidopsis thaliana,,htl-3 expressing ShHTL7,,,maximum germination,94%
COc1c(NC(=O)c2ccc(NC(=O)[C@H](Cc3c[nH]nn3)NC(=O)c3ccc(NC(=O)/C(C)=C/c4ccc(O)cc4)cc3)cc2)ccc(C(=O)Nc2ccc(C(=O)O)c(O)c2)c1O,Salmonella Typhimurium,broth microdilution,TA100,,,MIC,0.016 mg/L
O=C(c1ccc(Cl)c([N+](=O)[O-])c1)N1CCN(c2ccccc2F)CC1,Saccharomyces cerevisiae,CPY trafficking,,10 µM,,mature CPY,75%
C/C(=C\c1ccc(O)cc1)C(=O)Nc1ccc(C(=O)N[C@@H](Cc2c[nH]nn2)C(=O)Nc2ccc(C(=O)Nc3ccc(C(=O)Nc4ccc(C(=O)O)cc4)c(O)c3)cc2)cc1,Salmonella enterica serovar Kentucky,broth microdilution,ciprofloxacin-resistant,,,MIC,0.25 mg/L
O=c1[nH]cc(C(c2ccccc2Br)c2c[nH]c(=O)[nH]c2=O)c(=O)[nH]1,HIV-1 subtype C,"p24 antigen production, p24 ELISA",,15.6 µg/mL,,inhibition,< 25%
C/C(=C\c1ccc(O)cc1)C(=O)Nc1ccc(C(=O)N[C@@H](Cc2c[nH]nn2)C(=O)Nc2ccc(C(=O)Nc3ccc(C(=O)Nc4ccc(C(=O)O)c(O)c4)c(O)c3)cc2)cc1,Salmonella enterica serovar Kentucky,broth microdilution,ciprofloxacin-resistant,,,MIC,0.25 mg/L
COc1ccc(CNc2nc([C@H]3CC[C@H](C(=O)O)CC3)nc3sc4ccccc4c23)cc1Cl,Cryptosporidium parvum,"parasite growth, immunofluorescence imaging","HCT-8, Iowa",222 nM,,inhibition,-7.85% and -1.21%
Cc1cccc2c1N(C(=O)n1ccnc1)CC2,Arabidopsis thaliana,,"wild type, seeds","100 µM, after high-temperature exposure, together with: 1 µM karrikin KAR2",,germination rate,20.6% and 21.6% and 21.7% and 27.6% and 25% and 18.5% and 16.2%
O=c1[nH]cc(C(c2cccc(C(F)(F)F)c2)c2c[nH]c(=O)[nH]c2=O)c(=O)[nH]1,HIV-1 subtype C,"p24 antigen production, p24 ELISA",,62.5 µg/mL,,inhibition,30%
COc1cc(Cc2cnc(N)nc2N)cc(OC)c1OC.O=c1[nH]cc(F)c(=O)[nH]1,Streptococcus pneumoniae,broth microdilution,,48 h,,MBC,0.25 mg/L
Nc1nc(-c2ccc(OC(F)(F)F)cc2)nc2[nH]nc(Nc3ccc(Cl)cc3)c12,rhinovirus B5,viral cytopathic effect,HeLa,,,pIC50,5.73
[2H]C([2H])(N)C([2H])([2H])NC(=O)c1cc(C2CC2)nc2c1cnn2C(C)C,Enterovirus A71,viral replication,Tainan/4643/1998,900 nM,,plaque reduction,91.4% and 95.6%
COC1CCC(N(C(=O)C2CCC(C)CC2)c2cc(C3=CCCCC3)sc2C(=O)O)CC1 (stereo not shown),Arabidopsis thaliana,,spy-4,10 µM,,root hair density,23.4 root hairs/mm
CC(C)n1ncc2c(C(=O)NC[C@@H](C)N)cc(C3CC3)nc21,Enterovirus A71,viral replication,Tainan/4643/1998,30000 nM,,plaque reduction,100%
COc1cc(C(=O)Nc2ccc(C(=O)O)cc2)ccc1NC(=O)c1ccc(NC(=O)[C@H](Cc2c[nH]nn2)NC(=O)c2ccc(NC(=O)/C(C)=C/c3ccc(O)cc3)cc2)cc1,Salmonella enterica serovar Kentucky,broth microdilution,ciprofloxacin-sensitive,,,MIC,32 mg/L
Cc1ccc(-c2nc(N)c3c(Nc4ccc(Cl)cc4)n[nH]c3n2)cc1,rhinovirus B5,viral cytopathic effect,HeLa,,,pIC50,6.77
N=C(N)NCCC[C@@H]1NC(=O)[C@H](CCCNC(=N)N)NC(=O)[C@@H](C(c2ccccc2)c2ccccc2)NC(=O)[C@H](Cc2c[nH]c3ccccc23)NC(=O)[C@@H](C(c2ccccc2)c2ccccc2)NC(=O)[C@@H](CCCNC(=N)N)NC(=O)[C@@H](CCCNC(=N)N)NC1=O,Staphylococcus aureus,time-kill,MRSA ATCC BAA-1556,"4 × MIC, 1 h",,killing,> 85%
C=C(NC(=O)c1csc(-c2nc3c(cc2O)-c2nc(cs2)C(=O)NC(C(C)O)C(=O)NC(=C(C)OC)c2nc(cs2)C(=O)NC2c4nc(cs4)C(=O)NC(COC(=O)c4c5c6c(cccc6n4O)COC(=O)C(OC4CC(C)(O)C(N(C)C)C(C)O4)C2OC5)c2nc-3cs2)n1)C(N)=O (stereo not shown),Enterococcus faecalis,,"vancomycin-intermediate, 10 isolates",serum 75%,,MIC50,0.0625 mg/L
Cc1ccc(Nc2n[nH]c3nc(-c4ccncc4)nc(N)c23)cc1,rhinovirus B5,viral cytopathic effect,HeLa,,,pIC50,6.17
